Measurements collected from several papers.
Protocols differ between the studies behind these lines. “And” joins repeats or separate records; there may be more than shown. ± marks the error that the study gave.

O=S(=O)(F)Oc1cc(C(F)(F)F)cc(C(F)(F)F)c1
remaining compound (HEPES buffer; 1 mM, 20 h, pH 7.4, 10% acetonitrile): 9%

C/C(=C\CCP(=O)(OCOC(=O)c1ccccc1)Oc1ccc(C(C)C)cc1)CO (stereo not drawn)
remaining compound (50% CD1 mouse plasma; 100 µM, 2 h, pH 7.5, 37 °C): 0%

CCN(CC)CCOC(=O)c1ccc(N)cc1
remaining compound (human plasma; 4 h): 0%

COc1ccc(C(=O)OCOP(=O)(CC/C=C(\C)CO)Oc2ccc(C(C)C)cc2)cc1 (stereo not drawn)
remaining compound (50% Sprague-Dawley rat plasma; 100 µM, 2 h, pH 7.5, 37 °C): 42%

CC[C@@H](C)[C@@H](NC(=O)[C@@H](Cc1ccc(O)cc1)NC(=O)[C@H]1CCCN1C(=O)[C@@H](CCCNC(=N)N)NC(=O)[C@H](N)Cc1c[nH]cn1)C(=O)N[C@H](C)C(=O)N[C@H](Cc1c[nH]cn1)C(=O)N[C@H](CCCNC(=N)N)C(=O)N[C@@H](C(=O)N[C@H](Cc1ccc(O)cc1)C(=O)N[C@H](CO)C(=O)N[C@H](Cc1ccccc1)C(N)=O)C(C)C
remaining compound (10% human serum; 12 h): 94.6% and 89.6% and 94.3%

CC(C)N(CCc1c[nH]c2cccc(OC(=O)CCCC(=O)O)c12)C(C)C.Cl
remaining compound (beagle dog plasma; 1 µg/mL, 4 h, 37 °C): 39%

C/C(=C\CCP(=O)(OCOC(=O)CC1CCOCC1)Oc1cccc2ccccc12)CO (stereo not drawn)
remaining compound (50% CD1 mouse plasma; 100 µM, 2 h, pH 7.5, 37 °C): 0%

COc1c(N2CC3CCCNC3C2)c(F)cc2c(=O)c(C(=O)OCc3cnc([N+](=O)[O-])s3)cn(C3CC3)c12 (stereo not drawn)
remaining compound (LC-MS; human plasma, EDTA; 30 µM, 6 h; reference: initial amount): > 75%

CC(C)CC(=O)OC[C@H]1O[C@@](C#N)(c2ccc3c(N)ncnn23)[C@H](O)[C@@H]1O
remaining compound (Mice plasma; 5 µM, 60 min): 0%

c1ccc([C@@H]2C[C@H]2NC2CCNCC2)cc1
remaining compound (aqueous buffer; 4 days, 37 °C): 96%

CC[C@@H](C)[C@@H](NC(=O)[C@@H](Cc1ccc(O)cc1)NC(=O)[C@H]1CCCN1C(=O)[C@@H](CCCNC(=N)N)NC(=O)[C@H](N)Cc1c[nH]cn1)C(=O)N[C@H](C)C(=O)N[C@H](Cc1c[nH]cn1)C(=O)N[C@H](CCCNC(=N)N)C(=O)N[C@H](CCCCNC(=O)c1cccc(S(=O)(=O)F)c1)C(=O)N[C@H](Cc1ccc(O)cc1)C(=O)N[C@H](CO)C(=O)N[C@H](Cc1ccccc1)C(N)=O
remaining compound (10% human serum; 24 h): 108% and 90%

CC(=O)OC/C(C)=C/CCP(=O)(OCOC(=O)CC1CCOCC1)Oc1ccc(C(C)C)cc1 (stereo not drawn)
remaining compound (50% Sprague-Dawley rat plasma; 100 µM, 2 h, pH 7.5, 37 °C): 0%

O=S(=O)(F)c1cc(C(F)(F)F)cc(C(F)(F)F)c1
remaining compound (HPLC-MS; HEPES buffer with 10% acetonitrile; 1 mM, 1 h, pH 7.4): 98%

CC(=O)OC/C(C)=C/CCP(=O)(OCOC(=O)C1CCOCC1)Oc1ccc(C(C)C)cc1 (stereo not drawn)
remaining compound (50% Sprague-Dawley rat plasma; 100 µM, 2 h, pH 7.5, 37 °C): 0%

CC(C)(C)[C@H](NC(=O)C(F)(F)F)C(=O)N1C[C@H]2[C@@H]([C@H]1C(=O)N[C@H](C#N)C[C@@H]1CCNC1=O)C2(C)C
remaining compound (mouse liver microsomes; 60 min): 105%

Fc1ccc(N2CCNCC2COc2ccc3c(c2)OCO3)cc1 (stereo not drawn)
remaining compound (mouse liver microsomes; 90 min): 53 ± 1%

C/C(=C\CCP(=O)(OCOC(=O)CC1CCCCC1)Oc1ccc(C(C)C)cc1)CO (stereo not drawn)
remaining compound (50% CD1 mouse plasma; 100 µM, 2 h, pH 7.5, 37 °C): 0%

CCC[C@@](N)(CO)CCc1ccc(OCCCCCC(C)C)cc1
remaining compound (cynomolgus monkey liver microsomes; 1 h): 16%

Excerpt of the above:
CC[C@@H](C)[C@@H](NC(=O)[C@@H](Cc1ccc(O)cc1)NC(=O)[C@H]1CCCN1C(=O)[C@@H](CCCNC(=N)N)NC(=O)[C@H](N)Cc1c[nH]cn1)C(=O)N[C@H](C)C(=O)N[C@H](Cc1c[nH]cn1)C(=O)N[C@H](CCCNC(=N)N)C(=O)N[C@@H](C(=O)N[C@H](Cc1ccc(O)cc1)C(=O)N[C@H](CO)C(=O)N[C@H](Cc1ccccc1)C(N)=O)C(C)C
remaining compound (10% human serum; 12 h): 94.6% and 89.6% and 94.3%
